Assay results collected from several papers.
Each numbered part is a random draw from the data of one study; scales do not carry over between parts.

Sample 1 — method: competition protein-binding microarray; molecule type: double-stranded DNA, one strand shown; sample: in vitro; concentration: 2 µM; added: Cbf1 competitor, 0.05 µM; direction: higher = stronger binding
Target: Phosphate system positive regulatory protein PHO4, full length, GST-tagged (PHO4, Saccharomyces cerevisiae, UniProt P07270, residues 1-312)
Notes: whole 60-bp probe, lowest competitor level
Target sequence (chain): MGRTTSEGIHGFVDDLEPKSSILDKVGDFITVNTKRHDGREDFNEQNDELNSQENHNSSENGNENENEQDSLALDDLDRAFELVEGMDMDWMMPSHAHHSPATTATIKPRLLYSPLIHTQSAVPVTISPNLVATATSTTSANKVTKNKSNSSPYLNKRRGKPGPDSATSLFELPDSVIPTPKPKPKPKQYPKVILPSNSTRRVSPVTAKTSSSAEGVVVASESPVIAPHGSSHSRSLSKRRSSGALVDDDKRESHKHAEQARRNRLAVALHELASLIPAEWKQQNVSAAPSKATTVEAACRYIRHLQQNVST
`CATACCCAACCTTTTCACGTGTCGTAAGATATTTGTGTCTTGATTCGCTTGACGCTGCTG` gave a fluorescence intensity of 15200 a.u.
With `AAAGCGGTAATTTGGCCCGTGGGTGCAGATATCTATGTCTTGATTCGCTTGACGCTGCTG` the fluorescence intensity was 9820 a.u.
`CACTGTAGATGAACACACACTAAACGACAATAAGACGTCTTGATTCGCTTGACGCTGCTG` gave a fluorescence intensity of 6790 a.u.
With `ACTGGCTCTATTTTGCACGCAACTTGTGCAGCTTTAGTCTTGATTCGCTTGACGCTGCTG` the fluorescence intensity was 6310 a.u.
With `TTTTTTTGCTACCAACACGTGCCAGTGGTTTAGGTAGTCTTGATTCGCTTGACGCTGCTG` the fluorescence intensity was 16900 a.u.
With `CTTCTGTAAATTTGTCACAGGACTTGACGCGCCCCGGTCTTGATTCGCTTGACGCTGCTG` the fluorescence intensity was 3080 a.u.

Sample 2 — method: protein-binding microarray; molecule type: double-stranded DNA, one strand shown; sample: in vitro; concentration: 2540 nM top; notes: 60-bp whole probe; added: salmon DNA 0.4 mg/ml; relative to: random background probes; direction: higher = stronger binding; constant ends, left off below: GCCTAGCAC … GTCTTGATTCGCTTGACGCTGCTG
Target: Interferon regulatory factor 3, full length, phosphomimetic (IRF3, Homo sapiens, UniProt Q14653, residues 1-427, S386D/S396D/S398D/S402D/T404D/S405D)
Construct (chain): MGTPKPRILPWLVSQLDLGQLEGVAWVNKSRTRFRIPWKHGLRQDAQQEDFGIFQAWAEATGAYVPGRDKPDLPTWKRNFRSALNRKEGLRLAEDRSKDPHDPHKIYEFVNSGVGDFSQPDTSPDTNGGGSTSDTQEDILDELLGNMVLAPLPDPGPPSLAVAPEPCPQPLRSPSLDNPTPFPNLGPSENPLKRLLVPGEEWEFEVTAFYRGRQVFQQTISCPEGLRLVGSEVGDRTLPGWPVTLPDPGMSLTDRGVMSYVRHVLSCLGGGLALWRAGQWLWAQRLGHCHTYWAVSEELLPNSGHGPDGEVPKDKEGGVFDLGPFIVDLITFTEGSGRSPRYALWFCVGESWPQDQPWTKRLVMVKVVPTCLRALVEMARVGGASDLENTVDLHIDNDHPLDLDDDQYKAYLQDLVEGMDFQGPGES
For `TCCATTTTCTGAATGCTACTGTGCTAG`, “fitted relative affinity” read 2.88 z-score.
Under “fitted relative affinity”, `GACGGGTTCGGTCTCGGGACGTGCTAG` is recorded as 1.47 z-score.
`TCACCTATCCAAGTTCCCACTGTGCTA`: “fitted relative affinity” 1.23 z-score.
Under “fitted relative affinity”, `TTTACTAGGAGTTTTCAGTCCGTGCTA` is recorded as 0.5 z-score.
For `TCAATCCTTCATTTGAAACTGTGCTAG`, “fitted relative affinity” read 0.485 z-score.

Sample 3 — method: RNA Bind-n-Seq; molecule type: RNA; sample: in vitro; concentration: 365 nM; relative to: no-protein control; direction: higher = stronger binding
Target: RNA binding protein fox-1 homolog 2, RRM domain, GST-SBP tag (RBFOX2, Homo sapiens, UniProt O43251-10, residues 100-194)
Notes: natural RNA segment, single round, ends assumed
Construct (chain): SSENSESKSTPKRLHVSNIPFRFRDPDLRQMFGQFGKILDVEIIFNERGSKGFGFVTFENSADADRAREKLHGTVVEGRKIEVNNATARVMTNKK
Under “RBNS enrichment (R)”, `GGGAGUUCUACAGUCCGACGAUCACCGCCUCUGCCCCGUGAUGUGCUGGAAGGCUCCUGUCCUCUCCCCACCGCGUCUUGCCUUUGUGCUGACCCCGCGGGGCUGCGGCCGGCAGCCACUCUGCGUCUCUCACUGGAAUUCUCGGGUGCCAA` is recorded as 0.46.
`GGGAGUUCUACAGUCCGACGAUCUAGAUUGUGAGUUCUUCAAGGGCAGGCUCAUCUCCUGCACAUCUUUCUACUUCUCUACAGCAGCUGUCAGUGUUUUGUACUUGUAGACACCUAAUAAAUUGAUCAUUUGCUGGAAUUCUCGGGUGCCAA` — result for “RBNS enrichment (R)”: 0.614.
Under “RBNS enrichment (R)”, `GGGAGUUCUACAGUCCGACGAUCCCACCUCAACCUGGCAUUCUGUGUUAAUAAUACAGAUACUAUUUUUAUAAAAUCAUUUUCAAGUUUCUUCAGAUGGGAAGGUGAUUCUGUGACCUUUCUUAUUUCCCUGUUGGAAUUCUCGGGUGCCAA` is recorded as 0.524.
`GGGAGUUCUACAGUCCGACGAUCAAUAAUUAUUAAGCUGUGUGAUAAUUUCUGCUUUCAGGACACUCAUCCAUUAUCUUGGCUGUGAGCUCCUUGGGUACGGGUACCUUGUAUGUUUACUUUUAUAUCCCUAGUGGAAUUCUCGGGUGCCAA` — result for “RBNS enrichment (R)”: 2.66.
For `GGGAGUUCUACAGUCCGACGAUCCUUUUGUCAUUUGUUUUUUGGAGUAGUUUUGAAAAGUGUCUAUAUUGAGUACACUAUUGCUGUCCAUUGCUGCUGUGAAGCCCUAGCUGAAUAUAGAUGUACAAAUCAGUUGGAAUUCUCGGGUGCCAA`, “RBNS enrichment (R)” read 0.667.
`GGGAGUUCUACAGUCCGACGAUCUUUUCAAGGAUAUUAGUUCAAAUUGAAAUGGUUUCACGCCACACGGAAAUCUUUAAGUUAUUUGUUGAGGUACCAUAUAUUUAGGGUGCUAGGGGCAAGUAAUGUUAAUAUGGAAUUCUCGGGUGCCAA`: “RBNS enrichment (R)” 0.352.
For `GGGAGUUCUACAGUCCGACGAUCGCCAGCAUCCGUCCGUCCUCCACUCUCCAGCCUCUCCCCAGCCUCCUGCACUGAGCUGGCCUCACCAGUCGACUGAGGGAGCCCCUCAGCCCUGACCUUCUCCUGACCUGUGGAAUUCUCGGGUGCCAA`, “RBNS enrichment (R)” read 0.563.
Under “RBNS enrichment (R)”, `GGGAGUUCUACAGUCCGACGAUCAUAGACGAUUGACAUGGCACUGAUGGUCAGUUGCCCAGGGAGGCCGCUUACUCUGGAUGCAGAUGGCUGCUGCCGAUCCACUCUGUCUUUCUCGGGCUGCUUUUGCGUCGUGGAAUUCUCGGGUGCCAA` is recorded as 0.525.

Mixed results
`PhoQ, residues 284 288 289 292 302 303 SSTLSG` has a fold induction of 6.81 (PhoP, residues 12 14 15 18 19 LHHSG (Escherichia coli, UniProt P23836); Sort-seq, item: YFP reporter; E. coli; PhoQ-PhoP variant library, added: 10 µM Mg2+; relative to: high Mg2+ state, higher = stronger signaling).

Some of these lines once more (sample 1):
With `AAAGCGGTAATTTGGCCCGTGGGTGCAGATATCTATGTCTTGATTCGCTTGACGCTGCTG` the fluorescence intensity was 9820 a.u.
With `CTTCTGTAAATTTGTCACAGGACTTGACGCGCCCCGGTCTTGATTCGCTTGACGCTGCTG` the fluorescence intensity was 3080 a.u.
